Results of several laboratories.
A part holds a random share of what one study measured. Changes are numbered by the printed parent chain.

Block 1 — target: ATF2, bZIP domain (human); technique: DHFR protein complementation; medium: yeast; relative to: wild-type JUN-FOS pair; reading: higher = stronger binding; endpoint: binding fitness
Notes: single substitutions, most at no-binding floor
Starting sequence: JUN, bZIP domain (human); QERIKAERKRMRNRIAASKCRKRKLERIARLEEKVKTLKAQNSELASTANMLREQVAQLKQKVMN; partner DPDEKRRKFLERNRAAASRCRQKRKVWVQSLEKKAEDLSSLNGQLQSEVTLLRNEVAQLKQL
K36A: -1.17 natural log
L38K: -1.51 natural log
I28Q: -1.51 natural log
L52G: -1.41 natural log
S47P: -1.53 natural log
E44I: -1.48 natural log
E44W: -1.45 natural log
E32I: -1.43 natural log
E32V: -1.4 natural log
K36I: -1.4 natural log
A29E: -1.27 natural log
A57H: -1.43 natural log
R30G: -1.35 natural log
V35T: -1.4 natural log
R53A: -1.25 natural log
A46G: -1.37 natural log
L38P: -1.49 natural log
L45A: -1.5 natural log

Block 2 — target: CCND1, cyclin fold, Cln2 fusion (human); technique: yeast growth competition, sequencing; medium: yeast; notes: weak parent motif; relative to: not given; reading: higher = stronger binding; endpoint: normalised enrichment score
Starting sequence: HIRA docking peptide (human); SLSKRKLELEVET; partner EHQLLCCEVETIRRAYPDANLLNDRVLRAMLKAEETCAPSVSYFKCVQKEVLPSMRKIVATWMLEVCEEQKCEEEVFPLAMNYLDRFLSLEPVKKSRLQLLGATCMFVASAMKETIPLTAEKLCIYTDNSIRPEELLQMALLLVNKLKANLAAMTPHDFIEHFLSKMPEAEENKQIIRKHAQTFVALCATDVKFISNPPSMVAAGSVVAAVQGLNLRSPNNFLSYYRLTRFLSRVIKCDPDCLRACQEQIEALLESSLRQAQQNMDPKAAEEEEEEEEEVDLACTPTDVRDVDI
SLSKRKLELAVET [E10A]: 0.0635
SLSKRKLELEVAT [E12A]: 0.758
SASKRKLELEVET [L2A]: 0.67
SLSKRKLEFEVET [L9F]: 1.01
SLSKRKAELEVET [L7A]: 0.5
SLSKKKLELEVET [R5K]: 0.596
SLAKRKLELEVET [S3A]: 0.354
SLSKRKLALEVET [E8A]: 0.825
SLSKRKLEAEVET [L9A]: 0.843

Block 3 — technique: DHFR PCA, deep sequencing; medium: yeast; added: (+)-ABA 58 µM; relative to: wild-type fitted maximum; reading: higher = stronger binding; endpoint: relative binding score
Target: ABI1, truncated, D143A, DHFR fusion (Arabidopsis thaliana)
Notes: methotrexate growth selection, single substitutions
Starting sequence: PYL1, truncated, DHFR fusion (Arabidopsis thaliana); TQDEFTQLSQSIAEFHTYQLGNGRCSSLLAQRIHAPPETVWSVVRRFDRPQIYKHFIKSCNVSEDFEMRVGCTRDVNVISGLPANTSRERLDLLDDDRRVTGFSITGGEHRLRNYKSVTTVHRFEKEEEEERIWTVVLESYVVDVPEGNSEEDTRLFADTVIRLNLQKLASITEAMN; partner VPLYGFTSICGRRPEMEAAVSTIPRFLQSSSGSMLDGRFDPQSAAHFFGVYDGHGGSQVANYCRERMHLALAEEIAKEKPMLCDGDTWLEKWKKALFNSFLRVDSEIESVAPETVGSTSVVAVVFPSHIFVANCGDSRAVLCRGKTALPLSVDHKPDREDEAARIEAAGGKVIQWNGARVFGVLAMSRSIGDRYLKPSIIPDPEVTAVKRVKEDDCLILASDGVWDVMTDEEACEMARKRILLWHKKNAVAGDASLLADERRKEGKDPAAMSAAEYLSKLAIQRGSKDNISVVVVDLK
A35S: 74.7%
V62Q: 35.8%
R90G: -12.9%
L20T: 92.3%
R163L: 40.4%
A84F: 43.1%
V161D: 1.54%
S117L: 0.727%
Q31E: 54.5%
V143E: -0.37%
S87M: 5.97%
V40M: -14%
D3K: 80%
I12N: 22%
A84Y: 55.9%
L138R: 2.69%
R113S: 89.3%

Block 4 — technique: RNA Bind-n-Seq; molecule type: RNA; medium: in vitro; tested at: 200 nM; notes: whole 134-nt RNA, ends assumed; added: 150 mM KCl; relative to: input library; reading: higher = stronger binding; endpoint: log2 enrichment
Target: Ras GTPase-activating protein-binding protein 1, full length (G3BP1, Homo sapiens, UniProt Q13283)
Sequence of UniProt Q13283 (whole entry, looked up): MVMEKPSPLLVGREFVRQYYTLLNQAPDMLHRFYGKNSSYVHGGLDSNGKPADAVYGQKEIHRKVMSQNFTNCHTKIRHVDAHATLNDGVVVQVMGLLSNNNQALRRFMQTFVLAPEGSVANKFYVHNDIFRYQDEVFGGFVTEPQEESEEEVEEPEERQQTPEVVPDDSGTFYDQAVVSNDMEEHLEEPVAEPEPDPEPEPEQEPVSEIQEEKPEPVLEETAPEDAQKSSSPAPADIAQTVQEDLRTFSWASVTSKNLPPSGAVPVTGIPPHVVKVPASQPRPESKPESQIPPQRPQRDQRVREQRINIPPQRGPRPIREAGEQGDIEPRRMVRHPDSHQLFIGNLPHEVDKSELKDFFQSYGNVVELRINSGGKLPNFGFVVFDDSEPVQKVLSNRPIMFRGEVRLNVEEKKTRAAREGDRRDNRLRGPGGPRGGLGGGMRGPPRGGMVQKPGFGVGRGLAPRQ
Constant ends, left off below: GGGAGUUCUACAGUCCGACGAUC … UGGAAUUCUCGGGUGUCAAGG
UCCUGUGCUACACAUCGUAUGUACCGAAUCGGGGAAAAAAGGGAAAAAAGGGAAAAAAGGAAAGUAUUAUGUUACGCCGUUCGGAUCUGC: -0.0838
UGCCAAAGUAUGGCAAGAAAUUGCUCCUGGAAAUACUGAUGCCACCCCAGUAACUCAUGGAACUGAAAGCUCUUGGCAUGAAAUAGCAGC: 0.758
ACCAUGCAGCUGGGCAUCUUUGGGAAGUGGGGCAAGGGGGGGAUAGGGAGGGGGGUAACACUUUGGGAACAGGUGGUCCCAGGUCGUUUC: 1.58
CAAGUCCUGUGCUACACAUCGUAUGUACCGAAUCGGGGAAAGGAAAGGGAAAGGGGAAAGUAUUAUGUUACGCCGUUCGGAUCUGCACUU: 0.17
GUCCUGUGCUACACAUCGUAUGUACCGAAUCAAACCCCCAAACCCCCAAAUUUUUAAAAAAGUAUUAUGUUACGCCGUUCGGAUCUGCAC: -0.294
GUCCUGUGCUACACAUCGUAUGUACCGAAUCGGGGUGGGGAAAAAGGGGAAAAAGGGGAAAGUAUUAUGUUACGCCGUUCGGAUCUGCAC: 0.404
UGGGCAAUGUGUCGGCUGCAUGCACGAGCCAGGAACUGCGCAGCCUCUUCGAGCGCCGCGGACGCGUCAUCGAGUGUGACGUGGUGAAAG: -1.49
CUGUGCUACACAUCGUAUGUACCGAAUCGGGGCCCCCCCGGGCCCCCCCGGGCCCCCCCGGGAAAGUAUUAUGUUACGCCGUUCGGAUCU: -1.4
CAAGUCCUGUGCUACACAUCGUAUGUACCGAAUCGGGAAAGGGUUUUUGGGUGGGAAAGUAUUAUGUUACGCCGUUCGGAUCUGCACUUC: 0.557
UGGCCCUGGUGGCAUGCGGGGAGGAAGAGGUGGCCUCAUGGAUCGUGGUGGUCCCGGUGGAAUGUUCAGACGUGGCCGUGGUGGAGACAG: 0.237
UCCUCAAGUCCUGUGCUACACAUCGUAUGUACCGAAUCGGAGGAGGAGGGGAAAGUAUUAUGUUACGCCGUUCGGAUCUGCACUUCCAGC: -0.393
GCAGGAAGUAAAAACAAAUGGAAAUGCUUCGGAUAGAAACAGGGGUGGGGGUUGCUAAGGAAAGGGUGGGAUGGGAGUGGGUAAAGAGUU: 0.935
GCUUAUGUAGACAUGAGGAAGAUUGGCAGUAGCCGGGGAAUGGUUUCUGCAUACCCUCGACAGCUAGAGUCAUUAAUCCGCUUAGCAGAA: -0.216
CCUGUGCUACACAUCGUAUGUACCGAAUCGGAAAAAAAGGAAAAAAAGGAAAAAAAGGGGAAAGUAUUAUGUUACGCCGUUCGGAUCUGC: -0.897

For quick reference, copied from above (block 1):
K36I: -1.4 natural log
E44W: -1.45 natural log
I28Q: -1.51 natural log
R53A: -1.25 natural log
E32I: -1.43 natural log
K36A: -1.17 natural log
E32V: -1.4 natural log
A46G: -1.37 natural log
L52G: -1.41 natural log
S47P: -1.53 natural log
